# Published values collected from several papers.
# Each numbered part is a random draw from the data of one study; scales do not carry over between parts. Changes are numbered by the printed parent chain.

# Series 1 — target: CCNB3, cyclin fold, Cln2 fusion (human); technique: yeast growth competition, sequencing; medium: yeast; setting: weak parent motif; reference: not given; reading: higher = stronger binding
# Starting sequence: CDC6 docking peptide (human); TLKGRRLVFDNQL; partner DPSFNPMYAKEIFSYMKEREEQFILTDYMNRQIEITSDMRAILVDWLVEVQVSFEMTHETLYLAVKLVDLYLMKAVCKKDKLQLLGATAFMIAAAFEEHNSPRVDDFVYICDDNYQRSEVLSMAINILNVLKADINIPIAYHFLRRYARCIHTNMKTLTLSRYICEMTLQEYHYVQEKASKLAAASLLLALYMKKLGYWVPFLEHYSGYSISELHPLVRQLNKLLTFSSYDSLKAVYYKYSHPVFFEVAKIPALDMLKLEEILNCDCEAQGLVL
Variant,normalised enrichment score
K3I,0.445
R6E,-0.191
L7D,-0.0172
K3Q,0.13
K3L,0.598
Q12V,0.319
V8F,0.355
R5N,0.0213
K3E,0.385
R5Y,-0.294
L13S,0.377
D10G,-0.45
L2Q,-0.26
R6Q,0.057
V8N,0.856
R5D,0.011
L7M,0.0589
V8L,0.638
L13E,0.331
Q12H,0.219
L2Y,0.00285
R6P,0.898
L2F,0.167
R5V,0.292
F9L,0.497

# Series 2 — target: UBE2L6 UBC core domain (UniProt O14933); technique: yeast two-hybrid; medium: yeast; setting: mostly zero background; reference: not given; reading: higher = stronger interaction
# UniProt O14933, sequence (whole entry, looked up): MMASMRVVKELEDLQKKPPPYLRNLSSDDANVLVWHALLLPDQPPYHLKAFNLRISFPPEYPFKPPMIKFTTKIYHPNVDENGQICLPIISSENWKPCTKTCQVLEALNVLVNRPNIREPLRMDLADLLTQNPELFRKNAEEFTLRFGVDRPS
# B1: MDM4 RING domain (UniProt O15151); chain MEDCQNLLKPCSLCEKRPRDGNIIHGRTGHLVTCFHCARRLKKAGASCPICKKEIQLVIKVF
# B2: RNF133 RING domain (UniProt Q8WVZ7); chain DEEINPNGDSCVICFERYKPNDIVRILTCKHFFHKNCIDPWILPHGTCPICKCDILKVLGIQ
# B3: DZIP3 RING domain (UniProt Q86Y13); chain PDEEEEEEEPCVICHENLSPENLSVLPCAHKFHAQCIRPWLMQQGTCPTCRLHVLLPEEFP
# B4: RFWD3 RING domain (UniProt Q6PCD5); chain ASMDEEEGDTCTICLEQWTNAGDHRLSALRCGHLFGYRCISTWLKGQVRKCPQCNKKARHSDIVV
# B5: DTX2 RING domain (UniProt Q86UW9); chain EELKVPPDEDCIICMEKLSTASGYSDVTDSKAIGSLAVGHLTKCSHAFHLLCLLAMYCNGNKDGSLQCPSCKTIYGEKTGTQ
# B6: ZMIZ2 RING domain (UniProt Q8NF64); chain GTIPGTPGPNGEDGVEQTAIKVSLKCPITFRRIQLPARGHDCRHIQCFDLESYLQLNCERGTWRCPVCNKTALLEGLEVDQYMLGILIYIQNSDYEEITIDPTCSWK
# B7: SYTL4 RING domain (UniProt Q96C24); chain RGSQHYSDRTCARCQESLGRLSPKTNTCRGCNHLVCRDCRIQESNGTWRCKVCAKEIELKKAT
Molecule,lacZ reporter activity
B1 (MDM4 RING domain),0
AMYLQENGIDCPKCKFSYALARGGCMHFHCTQCRHQFCSGCYNAFYAKNKC (RNF31 RING domain (UniProt Q96EP0)),0
B2 (RNF133 RING domain),0
KLRKLKEAMLCMVCCEEEINSTFCPCGHTVCCESCAAQLQSCPVCRSRVEHVQHVY (MYLIP RING domain (UniProt Q8WY64)),0
B3 (DZIP3 RING domain),0
GSDDEEIPFKCFICRQSFQNPVVTKCRHYFCESCALQHFRTTPRCYVCDQQTNGVFNPA (RNF113A RING domain (UniProt O15541)),0
B4 (RFWD3 RING domain),0
B5 (DTX2 RING domain),0
B6 (ZMIZ2 RING domain),0
GSRLQEINDVCAICYHEFTTSARITPCNHYFHALCLRKWLYIQDTCPMCHQKVYIEDDIK (RNF139 RING domain (UniProt Q8WU17)),0
B7 (SYTL4 RING domain),0

# Series 3 — technique: RNA Bind-n-Seq; form: RNA; medium: in vitro; concentration: 200 nM; setting: whole 134-nt RNA, ends assumed; added: 150 mM LiCl; reference: input library; reading: higher = stronger binding; library: 7-deaza-guanosine replaces G
# Target: Ras GTPase-activating protein-binding protein 1, full length (G3BP1, Homo sapiens, UniProt Q13283)
# UniProt Q13283, sequence (whole entry, looked up): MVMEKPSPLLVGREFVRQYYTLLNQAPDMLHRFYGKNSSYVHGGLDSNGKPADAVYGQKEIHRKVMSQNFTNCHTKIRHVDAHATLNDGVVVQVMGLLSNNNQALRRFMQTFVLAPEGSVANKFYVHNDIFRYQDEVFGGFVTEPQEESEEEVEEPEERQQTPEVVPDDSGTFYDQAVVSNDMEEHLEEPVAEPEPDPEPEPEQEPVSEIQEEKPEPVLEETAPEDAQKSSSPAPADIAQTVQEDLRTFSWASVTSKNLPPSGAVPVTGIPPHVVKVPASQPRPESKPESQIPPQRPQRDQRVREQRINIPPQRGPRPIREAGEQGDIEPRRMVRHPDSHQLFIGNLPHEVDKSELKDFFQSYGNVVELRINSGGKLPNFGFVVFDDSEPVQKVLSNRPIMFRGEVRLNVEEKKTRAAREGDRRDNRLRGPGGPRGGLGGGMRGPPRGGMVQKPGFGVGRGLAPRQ
Oligonucleotide,log2 enrichment
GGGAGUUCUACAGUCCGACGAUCUCAAGUCCUGUGCUACACAUCGUAUGUACCGAAUCGGUUUGGGUUUGGUUUGGGAAAGUAUUAUGUUACGCCGUUCGGAUCUGCACUUCCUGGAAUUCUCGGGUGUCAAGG,-0.68
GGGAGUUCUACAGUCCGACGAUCCUGUGCUACACAUCGUAUGUACCGAAUCGGGGCCCCCCCGGCCCCCCCGGGCCCCCCCGGGGAAAGUAUUAUGUUACGCCGUUCGGAUCUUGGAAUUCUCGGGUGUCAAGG,0.645
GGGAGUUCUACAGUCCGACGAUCUGGGAGGUGGAUUUUGUUUAUUUUUUUAGCUCAUUUCCAGGGGUGGGAAUUUUUUUUUAAUAUGUGUCAUGAAUAAAGUUGUUUUUGAACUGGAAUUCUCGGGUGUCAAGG,-0.578
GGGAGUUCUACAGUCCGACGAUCCUGUGCUACACAUCGUAUGUACCGAAUCGGGGAAAAAGGGGAAAAAAAGGGGAAAAAGGGGAAAGUAUUAUGUUACGCCGUUCGGAUCUGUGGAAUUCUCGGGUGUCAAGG,0.609
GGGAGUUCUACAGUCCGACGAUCUUGGCGCAUGCGCCUAAAGCUGACGGGUUUGAAAUGGCUUCGAUGUUAGCCGGGACCCGACUCAGGUGAAGGUCUGGUCCCCGUAGUUGGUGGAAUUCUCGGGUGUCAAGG,-0.352
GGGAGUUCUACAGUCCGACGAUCCACAGACAACACGCACCCACACAGACACAGAGGGAAGAGGUUGGGAUGGGGACAGGGUGCACAGCAGGGCGGGGUAGGACCCCAGCCCCUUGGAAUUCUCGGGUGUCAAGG,-1.01
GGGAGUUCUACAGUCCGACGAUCGUCCUGUGCUACACAUCGUAUGUACCGAAUCAAAUUUAAAUUUUUAAACCCCCCCAAAAAAGUAUUAUGUUACGCCGUUCGGAUCUGCACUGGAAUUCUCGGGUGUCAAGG,1.09
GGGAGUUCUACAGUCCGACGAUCGCAGGAAGUAAAAACAAAUGGAAAUGCUUAAAAUAGUGGCAGGGGUGGGGGUUGCUAAGGAAAGGGUGGGAUGGGAGUGGGUAAAGAGUUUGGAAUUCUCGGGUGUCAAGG,-0.416
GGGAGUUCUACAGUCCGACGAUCAGUCCUGUGCUACACAUCGUAUGUACCGAAUCGGUUUUUGGGUUUUUGGGUUUUUGGGAAAGUAUUAUGUUACGCCGUUCGGAUCUGCACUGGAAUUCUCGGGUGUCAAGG,-0.118
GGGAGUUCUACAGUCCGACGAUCCUGUGCUACACAUCGUAUGUACCGAAUCGGGGAAAAAAGGGGAAAAAAGGGAAAAAAGGGGAAAGUAUUAUGUUACGCCGUUCGGAUCUGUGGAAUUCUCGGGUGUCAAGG,0.487
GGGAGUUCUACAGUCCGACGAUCUAGUCACCUACUGCCACCUUCGAAAAACACGGAGAGCACCUACCCAGAGGAGAAGGUAGAUUUGGAGUAAGCCGCCGUCGACAUAAUUCCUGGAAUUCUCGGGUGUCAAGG,0.0737

# Series 4 — technique: EMSA with sequencing; form: double-stranded DNA, one strand shown; medium: in vitro; concentration: 10 and 20 nM; reference: negative control set to 0; reading: higher = stronger binding
# Target: Hepatocyte nuclear factor 3-alpha (Foxa1, Mus musculus, UniProt P35582, residues 1-468, full length assumed)
# Setting: whole designed probe, mean of two concentrations, ends assumed
# Residues (chain): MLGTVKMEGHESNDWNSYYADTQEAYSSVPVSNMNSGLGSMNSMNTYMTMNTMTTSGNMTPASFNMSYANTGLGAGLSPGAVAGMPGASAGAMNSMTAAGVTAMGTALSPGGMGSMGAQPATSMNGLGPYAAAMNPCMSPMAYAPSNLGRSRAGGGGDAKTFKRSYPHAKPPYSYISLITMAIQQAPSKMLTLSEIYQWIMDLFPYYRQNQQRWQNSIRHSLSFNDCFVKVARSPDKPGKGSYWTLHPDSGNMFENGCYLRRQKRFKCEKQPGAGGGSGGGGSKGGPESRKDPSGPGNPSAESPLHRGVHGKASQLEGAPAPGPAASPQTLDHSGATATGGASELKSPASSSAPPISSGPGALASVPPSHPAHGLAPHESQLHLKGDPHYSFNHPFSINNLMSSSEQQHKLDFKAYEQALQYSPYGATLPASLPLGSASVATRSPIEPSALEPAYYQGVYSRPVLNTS
Oligonucleotide,normalised bound fraction [ratio]
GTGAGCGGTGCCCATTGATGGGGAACATCTAGTTCCAGTCTTAGCATGGCAATTTCTTCCCGCAACATGCTGTTTTCACGCAAGAGATCTTCTTCTTTCTTATGACTAAGAGAAAGCTAAGTAATCTAAGGGAACTTTTAGTTAGCACTCAATAGAATGACATATCATGATTTCTTCTAAAATCAAAGAATGACATTTATATTTGTATAATGAAATAATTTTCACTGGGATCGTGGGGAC,0.225
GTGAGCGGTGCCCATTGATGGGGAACTAAAGTTTTGATTTTTAAAATGATTCCAATGCTTCTGACATAAAAAAATCTGTTGCTGAAATACTTGAATACTATAATATATTAAATGATCTAAGTAATCTTAGGACTACAGAAAAAAGAATATGAGAAAAGGATCAAAAGGAAGTAACTGATAAAAGTCAAGGAGAAATCAAAATTTAAATAAAAGAAATGGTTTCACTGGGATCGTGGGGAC,0.0481
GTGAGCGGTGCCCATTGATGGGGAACCTACTGCACAGAAAATTATCTGCTAAAATTCTGTGCAATGTGCATTGTTATTCTCTAAGTTTTTTTTTAAATAGCTATTTTGTAAAAATCCTAAGTAATCTTGACTTGTAATGCAGGATACAAACTTTCATTTGTCTGTGACATCTGCAAGAGAAAGATGTGATGTCCCCATTTAAAGAGGAATAGCTGATTATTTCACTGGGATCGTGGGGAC,-0.063
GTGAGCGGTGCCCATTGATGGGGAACTCGGCCAGCCTGGCTTCTGCGCCCCGCCAGGAGGTCGCGGAGCGGAGCGCGGCCAGGAAGTGAGCTGAGAGTGACAGCTCCCCCCACGCTGTTTGTTTATTCTCTCCACACACTGGCTCTATGACTCATTCTCTTTCTTTCGGGAGGAGGGGAGAAAGGAGCGGGAGGGCGGGCGGGCAGGGGAGAGGCAGGCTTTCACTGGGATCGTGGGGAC,0.284
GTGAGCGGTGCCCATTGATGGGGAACCAAGTTTGTGGTCCAGGAGCAACAGGTTATGCCATACAGCCTAGGTGTGTAGTAGGCTACACACCGTCTACCATGACTCATTACACTCTACAATGTTTGCACAATGATGAAATCCCATGTCACATTTCTCAGAACATACCCCTGTTGTTAAGCGATACATGACTGTACTTTTTTTAAAAAGTCCAAGGATATATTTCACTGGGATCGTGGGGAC,0.438
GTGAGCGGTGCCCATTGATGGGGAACGCAATAGCAAAAGTAAGGCAGGGAAGTACAAATTCAATAGCAAACAAATAGTGGTATGGCCATGTCACAATACCCTGCGGCCATTTCAAGTGATGTTTACAAAGTTTGTAGGCAGACAGTCACCTCGTATTTACAAAGCTCCGACTGTGCGGGGCGCTGGGTTGGGCACGGAGCAGATAGGGCCAGAAGGCCATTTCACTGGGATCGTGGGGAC,0.394
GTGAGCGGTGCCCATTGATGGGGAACATCTTCCCCCTCTTCCTTGCCCCACCAGCTCACCTTCCCGGGTTATTTGCAGATAGGAAAATAAATAAAGCCGGCATTCGTTAACGCAGTTCACGCGCATACTGCTGTTTGCTCTGCATGAATCATGGTCCTTACGCGAGGCGTGGCTCCGGGAGAGCAAAGCACCGTGTCAGGCGCATGATCCGGGCTCGCCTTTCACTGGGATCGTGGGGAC,0.354
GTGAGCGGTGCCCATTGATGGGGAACGAAATAAAATGCGATCACTTTTCACAATGATTCTTGGAGAAACCACATAATGGCTAAAGCAGCCTAAAATTACTTGGGATAGGTTAAATAAAGTAATCTTGGCTTATTAGATTTCCATAGAGTTAATAGTCTACATAGTCTAATGTTTTATAGACAAAACCTCTGTCATTCTGTTTTATAGAGTAACTCCTACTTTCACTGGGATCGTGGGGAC,0.00346

# Excerpt of the above (series 1):
Variant,normalised enrichment score
L7D,-0.0172
R5Y,-0.294
R6P,0.898
F9L,0.497
V8N,0.856
L13S,0.377
K3I,0.445
